Measured values of several laboratories.
± marks the error that the study gave. In brackets after ≈: the same amount, converted by molar mass.
HCRTR1: Orexin/Hypocretin receptor type 1 (HCRTR1, Homo sapiens, UniProt O43613)
Sequence of UniProt O43613 (whole entry, looked up): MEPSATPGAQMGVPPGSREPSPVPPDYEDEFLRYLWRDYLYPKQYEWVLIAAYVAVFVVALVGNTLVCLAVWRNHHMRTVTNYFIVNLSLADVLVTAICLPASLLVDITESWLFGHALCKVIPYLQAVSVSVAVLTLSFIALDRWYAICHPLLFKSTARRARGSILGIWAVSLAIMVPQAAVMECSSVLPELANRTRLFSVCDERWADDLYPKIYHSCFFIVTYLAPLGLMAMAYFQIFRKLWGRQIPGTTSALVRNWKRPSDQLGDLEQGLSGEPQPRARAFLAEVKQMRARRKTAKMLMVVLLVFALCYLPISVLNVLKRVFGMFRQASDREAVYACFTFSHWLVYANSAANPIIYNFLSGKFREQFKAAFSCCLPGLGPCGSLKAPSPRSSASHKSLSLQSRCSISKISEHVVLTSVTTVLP

Molecule | tested on | assay | test system | conditions | how to read | quantity | value
CC(C)(Sc1ccncc1-c1ccc(C#N)c2ccccc12)C(=O)O |  |  | Japanese male subjects, plasma | oral, 10 mg, single dose, fed, geometric least squares mean |  | AUC(0-24) | 195 ng·h/mL
O=C1Nc2ccccc2C(=O)CCc2ccccc21 |  | nephelometry | aqueous buffer | 30 min, pH 6.5 |  | kinetic solubility | 50 to 100 µg/mL (≈ 199 to 398 µM)
Nc1ccc(-c2nc(-c3ccc(Oc4ccc(C(F)(F)F)cc4)cc3)no2)cc1 |  |  | ICR mice, female, plasma | oral, 50 mg/kg |  | distribution half-life | 13 h
O=c1[nH]c(=O)c(Cc2cccc(C(F)(F)F)c2)c([C@H]2CC[C@H](c3ccccc3)CC2)[nH]1 |  |  | mouse, both sexes | NOAEL, day 28, 28-day GLP toxicology study |  | AUC(0-24) | 36500 ng·h/mL
COc1ccc(-n2nc(C(N)=O)c3c2C(=O)N(c2ccc(N4CCCCC4=O)cc2)CC3)cc1 |  |  | healthy Chinese subjects | oral, 10 mg twice daily, 12 h, day 9 |  | Cmin | 116 ng/mL
CCCC[C@@H]1NC(=O)[C@@H](NC(=O)[C@H](CCC(=O)O)NC(=O)CNC(=O)CN2CCN(CC(=O)O)CCN(CC(=O)O)CCN(CC(=O)O)CC2)CCCCNC(=O)C[C@@H](C(N)=O)NC(=O)[C@H](C(C)C)NC(=O)[C@@H]2CCCN2C(=O)[C@H](CCCNC(=N)N)NC(=O)CNC(=O)[C@H](Cc2c[nH]c3ccccc23)NC(=O)[C@H](CCCNC(=N)N)NC(=O)[C@@H](Cc2ccccc2)NC(=O)[C@H](Cc2c[nH]cn2)NC(=O)[C@H](CCC(=O)O)NC1=O [indium-111 labelled] |  |  | normal C57 mice, pancreas | intravenous, 0.037 MBq, 2 h |  | tissue uptake | 0.09 ± 0.07 %ID/g
CCOc1c([C@H](C)n2nc(C)c3c(N)ncnc32)cc(Cl)c(F)c1[C@@H]1CNC(=O)C1 |  |  | Japanese patients, plasma | oral, 20 mg once daily, cycle 1 day 15 |  | t1/2 | 10.4 ± 3.3 h
COc1cc2c3c(n(CCCN4CCOCC4)c(=O)c2cc1OC)-c1cc2c(cc1C3=O)OCO2 |  |  | patients, plasma | intravenous infusion, 10 mg/m^2 daily over 1 h, cycle 1 day 3 |  | AUC(0-24 h) | 2890 ng·h/mL
Cc1c2c(n(-c3ccc(Cl)cc3Cl)c1-c1ccc(OS(=O)(=O)CCC(F)(F)F)cc1)CCN(N1CCCCC1)C2=O |  | LC-MS/MS | cynomolgus monkey 5, plasma | intravenous infusion, 0.25 mg/kg, 90 min, total concentration mid-point of PET |  | plasma concentration | 83 nM
COc1ccc(CC2c3cc(OC)c(OC)cc3CCN2CC(=O)NCc2ccccc2)cc1NCc1ccccc1 (stereo not shown) | HCRTR1 | calcium signal, antagonist, fluorescence |  |  |  | Kb | > 10 µM
C[C@]12CC[C@@H]3c4ccc(O)cc4CC[C@H]3[C@@H]1C[C@@H](O)[C@@H]2O |  | GC-MS | breast cancer women on NSAI, serum | vaginal, 0.03 mg, 0.5 h, day 0 |  | maximum serum concentration | 0.0141 ng/mL
CC1=C2C[C@H]3[C@@H](CC[C@@H]4C[C@H](NS(C)(=O)=O)CC[C@@]43C)[C@@H]2CC[C@@]2(C1)O[C@@H]1C[C@H](C)CN[C@H]1[C@H]2C |  |  | patients, plasma | oral, 210 mg single, day -7, cycle 1 |  | AUC(0-24) | 1920 ng·h/mL
CSc1cc(C)nc(SC)c1NC(=O)CN1CCN(CCSc2nc3ccccc3[nH]2)CC1 |  |  | mouse Crl:CD1 (ICR) female, olfactory bulb | intranasal repeated, 32.4 µg in 0.01 N HCl, 15 min |  | concentration | 51 ng/g
CCCC[C@H](NC(C)=O)C(=O)N[C@H]1CCC(=O)NC[C@@H](C(=O)N[C@@H](Cc2c[nH]c3ccccc23)C(N)=O)NC(=O)[C@H](CCCNC(=N)N)NC(=O)[C@@H](Cc2ccccc2)NC(=O)[C@H](Cc2c[nH]cn2)NC1=O |  |  | beagle dog, male, plasma | subcutaneous, 8.0 mg/kg daily, day 14 |  | AUC(0-last) | 1200 ng·h/mL
CC1(C)C2CC[C@]1(C)C(=O)/C2=C/c1cccs1 |  |  | human red blood cells | 10 to 300 µg/mL, 30 min |  | maximum hemolysis | < 14%
CC(C)[C@H](NC(=O)[C@@H]1CCCN1C(=O)[C@H](CCCNC(=N)N)NC(=O)[C@H](CS)NC(=O)[C@H](Cc1c[nH]c2ccccc12)NC(=O)[C@H](CCCNC(=N)N)NC(=O)[C@@H](Cc1ccccc1)NC(=O)[C@H](Cc1c[nH]cn1)NC(=O)[C@H](CCC(=O)O)NC(=O)[C@H](CS)NC(=O)[C@H](CS)NC(=O)[C@H](CCCCN)NC(=O)[C@@H]1CC(=O)N[C@@H](CCCNC(=N)N)C(=O)N[C@@H]([C@@H](C)O)C(=O)N[C@@H](CC(=O)O)C(=O)N[C@H](Cc2ccc(O)cc2)C(=O)N1)C(N)=O [technetium-99m labelled] |  |  | C57 mouse, female, B16/F1 melanoma, lung | intravenous, 2 h, added: NDP-MSH 10 µg co-injected |  | tissue uptake | 1.18 ± 0.4 %ID/g
CCCOc1ccc([C@H]2CNC(=O)N2c2ccc3[nH]cnc3c2)cc1 |  |  | human volunteers fasted, plasma | oral solution, 400 mg single dose, day 1, geometric mean |  | AUC(0-12h) | 3420 ng·h/mL

Molecule | tested on | assay | test system | conditions | how to read | quantity | value
C[C@@H](Oc1ccc(S(C)(=O)=O)cc1C(=O)N1C[C@@H]2C[C@]2(c2cc(C(F)(F)F)on2)C1)C(F)(F)F |  |  | human male, plasma | oral, 10 mg once daily, 312 h |  | trough concentration | 107 nM
O=C1NC(=O)[C@@H](c2cn3c4c(cccc24)CCC3)[C@@H]1c1c[nH]c2ccccc12 |  |  | human, plasma | oral, 120 mg, steady state, range limit, added: topotecan intravenous |  | AUC(0-12h) | 2700 to 50300 ng·h/mL
CN[C@@H]1[C@H](O)[C@H](NC)[C@H]2O[C@]3(O)[C@H](O[C@@H]2[C@H]1O)O[C@H](C)C[C@H]3NC(=O)Cc1ccc(F)cn1 |  | glutathione conjugation | rat liver S9 | 100 µM, 2 h, pH 7.4, added: glutathione 0.2 mM |  | parent remaining | 96.6%
N#CC[C@H](C1CCCC1)n1cc(-c2ncnc3[nH]ccc23)cn1 |  |  | human | topical, 0.75% twice daily |  | bioavailability | 7.68%
CO/N=C1\C[C@]2(C[C@@H]3C[C@@H](C/C=C(\C)C[C@@H](C)/C=C/C=C4\CO[C@@H]5[C@H](O)C(C)=C[C@@H](C(=O)O3)[C@]45O)O2)O[C@H](/C(C)=C/C(C)C)[C@H]1C |  | HPLC, non-compartmental | Corriedale lambs, parasitized, plasma | oral, 0.2 mg/kg, added: closantel 10 mg/kg oral |  | elimination half-life | 62.4 h
C=CC(=O)Nc1cc(Nc2nccc(-c3cn(C)c4ccccc34)n2)c(OC)cc1N(C)CCN(C)C |  |  | Sprague-Dawley rat, male, plasma | oral, 10 mg/kg, added: avitinib 30 mg/kg daily for 7 days |  | MRT(0-inf) | 11.7 ± 1.13 h
COc1cc2c(cc1OC)C(CC1CCCCC1)N(CC(=O)NCc1ccccc1)CC2 (stereo not shown) | HCRTR1 | calcium signal, antagonist, fluorescence |  |  |  | Kb | > 10 µM
Cc1nc2cccc(OCC(C)(C)C(=O)NC(C)C)c2c(N)c1C(=O)O |  |  | female Sprague-Dawley rat, plasma | oral gavage, 10 mg/kg, day 1 |  | Tmax | 0.25 h
C=CC(=C)CC[C@]1(C)[C@H](C)C[C@H](OC(=O)CCCCCCCCC)[C@@]23C(=C[C@H](OC(C)=O)C[C@@H]12)[C@@H](OC(C)=O)O[C@H]3OC(C)=O |  | haemolysis |  | 20 µM |  | haemolysis | 5.1%
S=C(NCCCc1c[nH]cn1)NCCCN(Cc1ccc(Cl)c(Cl)c1)c1ccc(Br)cn1 |  |  | male C57BL/6 mice, plasma | intraperitoneal, 30 mg/kg, 24 h |  | plasma concentration | 8.04 ng/mL
colistin methanesulfonate |  | one-compartment PK model | rat | i.p., 20 mg/kg colistin base activity |  | rate of conversion to colistin | 1.21 ± 0.381 mL/min/kg
Cn1c(-c2ccc(C(N)=O)cc2F)nnc1C(C)(C)Oc1c(F)cc(Cl)cc1F |  |  | healthy young Japanese subjects, plasma | oral, 10 mg once daily, day 18, 14 days dosing |  | half-life median | 23 h
Oc1ccc2c3c(cnc2c1)-c1ccc(C(F)(F)F)cc1O[C@@H]3c1ccc(OCCN2CC(CF)C2)cc1 |  | item: total radioactivity | healthy women, fasted, plasma | oral, 400 mg [14C]-labelled, single dose, mean |  | t1/2 | 114 h
CS(=O)(=O)n1cc2c(n1)CN([C@H]1CO[C@H](c3cc(F)ccc3F)[C@@H](N)C1)C2 |  |  | human, plasma | oral, single doses |  | alpha-phase half-life | 40 to 50 h
C[C@@H](c1ncncc1F)[C@](O)(Cn1cncn1)c1ccc(F)cc1F |  |  | Chinese patients, plasma | 200 mg, 12 h, multivariate regression | relative to: PM PPI users over NM non-users | trough concentration fold | ~5 fold
CCCCCCN(CCCCCC)CC(=O)N(CC(=O)N(CCCCN)CC(=O)N(CCN)CC(=O)N(CC(N)=O)C1CCCCC1)C1CCCCC1 |  | preparative RP-HPLC C18 | water to acetonitrile gradient | 0.05% TFA in eluent | higher = more hydrophobic | acetonitrile at elution | 64.5%
COc1cc(Nc2ncc3c(n2)-c2ccc(Cl)cc2C(c2c(F)cccc2OC)=NC3)ccc1C(=O)O |  |  | children, UGT1A1 intermediate or poor metabolizers, plasma | oral, 80 mg/m2, day 4 |  | trough concentration | 2060 ± 300 nM

For quick reference, copied from above:
Molecule | tested on | assay | test system | conditions | how to read | quantity | value
CS(=O)(=O)n1cc2c(n1)CN([C@H]1CO[C@H](c3cc(F)ccc3F)[C@@H](N)C1)C2 |  |  | human, plasma | oral, single doses |  | alpha-phase half-life | 40 to 50 h
S=C(NCCCc1c[nH]cn1)NCCCN(Cc1ccc(Cl)c(Cl)c1)c1ccc(Br)cn1 |  |  | male C57BL/6 mice, plasma | intraperitoneal, 30 mg/kg, 24 h |  | plasma concentration | 8.04 ng/mL
C=CC(=C)CC[C@]1(C)[C@H](C)C[C@H](OC(=O)CCCCCCCCC)[C@@]23C(=C[C@H](OC(C)=O)C[C@@H]12)[C@@H](OC(C)=O)O[C@H]3OC(C)=O |  | haemolysis |  | 20 µM |  | haemolysis | 5.1%
C[C@]12CC[C@@H]3c4ccc(O)cc4CC[C@H]3[C@@H]1C[C@@H](O)[C@@H]2O |  | GC-MS | breast cancer women on NSAI, serum | vaginal, 0.03 mg, 0.5 h, day 0 |  | maximum serum concentration | 0.0141 ng/mL
Cn1c(-c2ccc(C(N)=O)cc2F)nnc1C(C)(C)Oc1c(F)cc(Cl)cc1F |  |  | healthy young Japanese subjects, plasma | oral, 10 mg once daily, day 18, 14 days dosing |  | half-life median | 23 h
